Measurements gathered from unrelated publications.
Lines come from different studies, so protocols differ.
Target: LIM domain kinase 2 (LIMK2, Homo sapiens, UniProt P53671)

CN1CC[C@@H](COc2cnc(C#N)cc2-c2ccn3nc(NC(=O)C4CC4)cc3c2)C1 gave an inhibition of 18% (enzyme activity, inhibitor; 1 µM).
The remaining binding of Cc1cnc2nc1Nc1cccc(c1)COC/C=C/COCc1cc(ccc1OCCN1CCOCC1)N2 is reported as 90% (binding; 0.1 µM).
CNC(=O)C[C@H](Cc1ccc(C#N)cc1)NC(=O)c1cc(-c2ccc(CN[C@H](C)c3ccc(C)cc3)o2)ccc1Cl: “activity vs control” 92% (enzyme activity, inhibitor; 1 µM).
With COc1c(Cl)cccc1Nc1c(-c2ccncc2C#C[C@@]2(C)CCCN2C(=O)/C=C/CN(C)C)[nH]c2c1C(=O)NCC2 the remaining binding was 98% (binding, competition with immobilised ligand; 3 µM).
CCN1CCN(Cc2ccc(C(=O)Nc3ccc(C)c(NCc4cnc5[nH]ccc5c4OC)c3)cc2C(F)(F)F)CC1 gave a remaining binding of 58% (binding, competition with immobilised ligand; 1 µM).
O=C(Cc1ccc(OCc2ccccc2)cc1)NC1(C(=O)O)CCN(C(=O)c2ccc(-c3cccc(Cl)c3)cc2)CC1: “activity vs control” 58% (enzyme activity, inhibitor; 10 µM).
For Cc1ccc(-c2c(/C=C(\C#N)C(=O)NC(C)C)n(CCCO)c3ncnc(N)c23)cc1, the remaining binding was 100% (cell-free assay, competition with immobilised ligand; 1 µM).
With COc1cc(Nc2nc(C)cc(-c3cnn4nc(OC)ccc34)n2)cc(C(F)(F)F)c1 the remaining activity was 92% (inhibitor; 1 µM; baseline: control).
The remaining binding of CNC(=O)C1CCN(c2cc(C)c(F)cc2NC(=O)c2ccc(-c3cc(O)ccc3C)c(C)c2)CC1 is reported as 100% (binding, competition with immobilised ligand; 1 µM).
The inhibition of CN1CCN(Cc2ccc(-c3ccc(CO[C@H]4CCC[C@@H]4NC(=O)c4cc(-c5cnn(C)c5)cnc4N)cc3)cc2)CC1 is reported as -8% (enzyme activity, inhibitor; 0.1 µM).

For quick reference, copied from above:
CNC(=O)C[C@H](Cc1ccc(C#N)cc1)NC(=O)c1cc(-c2ccc(CN[C@H](C)c3ccc(C)cc3)o2)ccc1Cl: “activity vs control” 92% (enzyme activity, inhibitor; 1 µM).
With COc1c(Cl)cccc1Nc1c(-c2ccncc2C#C[C@@]2(C)CCCN2C(=O)/C=C/CN(C)C)[nH]c2c1C(=O)NCC2 the remaining binding was 98% (binding, competition with immobilised ligand; 3 µM).
